Values quoted from earlier work, collected from citations in different studies.
Protocols differ between the studies behind these lines. Numbers after ± are the reported error.
rib4: 6,7-dimethyl-8-ribityllumazine synthase (rib4, Schizosaccharomyces pombe, UniProt Q9UUB1)
CA12: Carbonic anhydrase 12 (CA12, Homo sapiens, UniProt O43570)
gag-pol protease: Gag-Pol polyprotein, protease (gag-pol, Human immunodeficiency virus type 1 group M subtype B, UniProt P04585)

CCc1c(Cl)cccc1N1CCN(C[C@@H](F)CCNC(=O)c2cc3ccccc3[nH]2)CC1  Ki (dopamine D3 receptor; binding): 0.84 ± 0.16 nM
O=c1[nH]c(SC[C@H](O)[C@H](O)[C@H](O)CO)c([N+](=O)[O-])c(=O)[nH]1  Ki (rib4; inhibitor; pH 7.0): 2000 ± 200 nM
NS(=O)(=O)c1ccc(Nc2nc(-c3cc4cc(Cl)ccc4oc3=O)cs2)cc1  Ki (carbonic anhydrase IX (human); enzyme activity, inhibitor): 25 nM
CCCCOC(=O)NS(=O)(=O)c1sc(CC(C)C)cc1-c1cccc(CN(Cc2cccnc2)C(C)=O)c1  Ki (angiotensin II type 2 receptor, pig; uterus membranes): 83 nM
CN(C)c1ccc(-c2cc3cc(I)ccc3o2)cn1  Ki (amyloid-β aggregates; binding): 2.36 nM
O=c1[nH]cnc2c(CNC(CO)COP(=O)(O)O)c[nH]c12 (racemic)  Ki (Plasmodium falciparum HGXPRT; inhibitor): 15 ± 4 nM
NS(=O)(=O)c1ccc(CCNC(=O)CSc2nc3ccc(I)cc3c(=O)n2Cc2ccccc2)cc1  Ki (carbonic anhydrase II, human): 3.3 to 35 nM
COCCOc1cc2ncnc(Nc3cccc(-c4cn(-c5cccc(S(N)(=O)=O)c5)nn4)c3)c2cc1OCCOC  Ki (Helicobacter pylori alpha-carbonic anhydrase; inhibitor, stopped-flow CO2 hydration): 70.1 nM
O=C(CCN(Cc1ccccc1)Cc1ccccc1)NO  Ki (Meprin A subunit beta (MEP1B, Homo sapiens, UniProt Q16820); enzyme activity, inhibitor): 74400 nM
O=c1[nH]cnc2c(CNCC(O)CP(=O)(O)O)c[nH]c12 (racemic)  Ki (Plasmodium falciparum HGXPRT; inhibitor): 9 ± 0.1 nM
COc1cc2nc(SC(C)C(=O)NCCc3ccc(S(N)(=O)=O)cc3)n(Cc3ccccc3)c(=O)c2cc1OC (centres unmarked)  Ki (carbonic anhydrase II, human): 3.3 to 35 nM
O=c1ncccn1[C@H]1C[C@H](O)[C@@H](CO)O1  Ki (cytidine deaminase; inhibitor): 2900 nM
C/C(=N\NC(=O)CSc1nc2ccccc2c(=O)n1CCc1ccc(S(N)(=O)=O)cc1)c1ccccc1  Ki (CA12; enzyme activity, inhibitor): 12.7 nM
Cc1cc(N)nc(CC2CNCC2OCCNCC(F)(F)c2cccc(F)c2)c1 (racemic)  Ki (Nitric oxide synthase 1 (Nos1, Rattus norvegicus, UniProt P29476); racemic mixture): 80 nM
N=C(N)NCCC[C@@H](NC(=O)C(c1ccccc1)c1ccccc1)C(=O)NCc1ccc(O)cc1  Ki (NPFF1R; binding): 18 nM
CN1CCC(n2nc(-c3c(-c4ccccc4)nn4ccccc34)ccc2=O)CC1  Ki (adenosine A1 receptor (human)): 2.9 nM
CN(Cc1c[nH]c2c(=O)[nH]cnc12)[C@H](CO)CCP(=O)(O)O  Ki (Plasmodium falciparum HGXPRT; inhibitor): 110 ± 30 nM
COc1cc2c(cc1OC)CN(CCCCn1ccc3ccc(OCCF)cc31)C2  Ki (Sigma non-opioid intracellular receptor 1 (SIGMAR1, Homo sapiens, UniProt Q99720); binding): 376 ± 351 nM
COCCOc1cc2ncnc(Nc3cccc(-c4cn(Cc5ccc(C(=O)NCCc6ccc(S(N)(=O)=O)cc6)cc5)nn4)c3)c2cc1OCCOC  Ki (Helicobacter pylori alpha-carbonic anhydrase; inhibitor, stopped-flow CO2 hydration): 805 nM
C=CCC(=N)NCCC[C@H](N)C(=O)O  Ki (mouse iNOS): 60000 nM
O=c1[nH]cnc2c(CNCCCP(=O)(O)O)c[nH]c12  Ki (Plasmodium falciparum HGXPRT; inhibitor): 60 ± 3 nM
COc1ccc(C(=O)Cc2nsc(Nc3ccc(S(N)(=O)=O)cc3)n2)cc1  Ki (human carbonic anhydrase IX; inhibitor): 86.4 nM
O=C(O)c1cc([N+](=O)[O-])ccc1NCCCc1ccccc1  Ki (Cystic fibrosis transmembrane conductance regulator (CFTR, Homo sapiens, UniProt P13569, E1371S); pore block; -120 mV, no MOPS−): ~20000 nM
C=CC(=O)N1CCC[C@@H](n2nc(-c3cccc4ccccc34)c3c(N)ncnc32)C1  Ki (Epidermal growth factor receptor (EGFR, Homo sapiens, UniProt P00533, L858R/T790M)): 58 ± 3.3 nM
CC[C@H](C)[C@H](NC(=O)[C@H](CC(=O)O)NC(=O)[C@H](CC(C)C)NC(=O)[C@H](CC(C)C)NC(=O)[C@H](CCCCN)NC(=O)[C@H](CCCNC(=N)N)NC(=O)[C@H](CC(N)=O)NC(=O)[C@H](CO)NC(=O)[C@H](Cc1c[nH]cn1)NC(=O)[C@H](C)NC(=O)[C@H](CCC(N)=O)NC(=O)[C@H](CCC(N)=O)NC(=O)[C@H](C)NC(=O)[C@H](CC(C)C)NC(=O)[C@H](CCC(N)=O)NC(=O)[C@H](CC(=O)O)NC(=O)[C@H](C)NC(=O)[C@H](CCCCN)NC(=O)[C@@H](NC(=O)[C@H](CCSC)NC(=O)[C@H](CCC(=O)O)NC(=O)[C@H](CC(C)C)NC(=O)[C@@H](NC(=O)[C@H](CCC(=O)O)NC(=O)[C@H](CCCNC(=N)N)NC(=O)[C@H](CC(C)C)NC(=O)[C@H](CC(C)C)NC(=O)[C@H](Cc1c[nH]cn1)NC(=O)[C@H](Cc1ccccc1)NC(=O)[C@@H](NC(=O)[C@H](CC(C)C)NC(=O)[C@H](CC(=O)O)NC(=O)[C@H](CC(C)C)NC(=O)[C@H](CO)NC(=O)[C@@H](NC(=O)[C@@H]1CCCN1C(=O)[C@@H]1CCCN1C(=O)[C@H](CCC(=O)O)NC(=O)[C@H](CCC(N)=O)NC(=O)[C@@H](N)CO)[C@@H](C)CC)[C@@H](C)O)C(C)C)[C@@H](C)O)C(=O)N[C@@H](C)C(N)=O  Ki (human CRF1 receptor (cloned)): ~6 nM
COC(=O)NC(C(=O)NN(Cc1ccc(Br)cc1)CC(O)(Cc1ccccc1)C(=O)NCc1ccccc1)C(C)(C)C (centres unmarked)  Ki (gag-pol protease; inhibitor): 88 nM
Nc1c(SC[C@H](O)[C@H](O)[C@H](O)CO)[nH]c(=O)[nH]c1=O  Ki (rib4; inhibitor; pH 7.0): 160 ± 10 nM
COCCNC(=O)C(NC(=O)C(O)(Cc1ccccc1)CN(Cc1ccc(Br)cc1)NC(=O)C(NC(=O)OC)C(C)(C)C)C(C)C (centres unmarked)  Ki (gag-pol protease; inhibitor): 5.1 nM
O=C(/C=C/Nc1ccccc1)c1cc2ccccc2oc1=O  Ki (CA12; inhibitor): 85.7 nM
CC(C)(C)[C@H](NC(=O)[C@H](CCONC(=N)N)NC(=O)Cc1ccc(CNC(=N)N)cc1)C(=O)N[C@@H](CCONC(=N)N)C(=O)NCc1ccc(C(=N)N)cc1  Ki (furin): 0.0101 nM
CC(C)C(=O)Nc1c(NC[C@H](O)[C@H](O)[C@H](O)CO)[nH]c(=O)[nH]c1=O  Ki (Bacillus subtilis lumazine synthase; inhibitor; recombinant β60 capsid; pH 7.0, Tris·HCl buffer, with: 2 constant, 1 varied): 95000 ± 36000 nM
O=C(Cc1cccs1)N[C@H](B(O)O)c1cccc(C(=O)O)c1  Ki (ADC-7 beta-lactamase; inhibitor): 21 nM
Nc1ccc(-c2ccc3ccccc3n2)cc1  Ki (amyloid beta fibrils; binding): > 5000 nM
O=C(/C=C/c1ccsc1)c1cc2ccccc2oc1=O  Ki (adenosine A1 receptor (human)): > 30000 nM
COCCOc1cc2ncnc(Nc3cccc(-c4cn(Cc5ccc(C(=O)Nc6ccc(S(N)(=O)=O)cc6)cc5)nn4)c3)c2cc1OCCOC  Ki (Helicobacter pylori alpha-carbonic anhydrase; inhibitor, stopped-flow CO2 hydration): 48 nM
CC[C@H](C)[C@H](NC(=O)[C@@H]1CSSC[C@H](NC(=O)[C@H](Cc2ccc(O)cc2)NC(=O)CN)C(=O)N[C@@H](CO)C(=O)N[C@@H](CCCNC(=N)N)C(=O)N[C@@H](CO)C(=O)N[C@@H](Cc2ccc(O)cc2)C(=O)N2CCC[C@H]2C(=O)N2CCC[C@H]2C(=O)N[C@@H](C(C)C)C(=O)N1)C(=O)N1CCC[C@H]1C(=O)N[C@@H](CC(=O)O)C(=O)O  Ki (MASP-2; inhibitor): 180 nM
NS(=O)(=O)c1ccc(CCn2c(SCC(=O)N/N=C/c3ccccc3)nc3ccccc3c2=O)cc1  Ki (Carbonic anhydrase 1 (CA1, Homo sapiens, UniProt P00915); enzyme activity, inhibitor): 152 nM
COc1cc2c(cc1OC)[C@@H]1C[C@H](O)[C@@H](CC(C)C)CN1CC2  Ki (5-HT7 receptor; binding): 0.023 µg/mL

A few entries again:
NS(=O)(=O)c1ccc(CCNC(=O)CSc2nc3ccc(I)cc3c(=O)n2Cc2ccccc2)cc1  Ki (carbonic anhydrase II, human): 3.3 to 35 nM
COCCOc1cc2ncnc(Nc3cccc(-c4cn(-c5cccc(S(N)(=O)=O)c5)nn4)c3)c2cc1OCCOC  Ki (Helicobacter pylori alpha-carbonic anhydrase; inhibitor, stopped-flow CO2 hydration): 70.1 nM
O=C(CCN(Cc1ccccc1)Cc1ccccc1)NO  Ki (Meprin A subunit beta (MEP1B, Homo sapiens, UniProt Q16820); enzyme activity, inhibitor): 74400 nM
O=c1[nH]cnc2c(CNCC(O)CP(=O)(O)O)c[nH]c12 (racemic)  Ki (Plasmodium falciparum HGXPRT; inhibitor): 9 ± 0.1 nM
COc1cc2nc(SC(C)C(=O)NCCc3ccc(S(N)(=O)=O)cc3)n(Cc3ccccc3)c(=O)c2cc1OC (centres unmarked)  Ki (carbonic anhydrase II, human): 3.3 to 35 nM
